Published values from different studies.
Each numbered part is a random draw from the data of one study; scales do not carry over between parts.

Series 1 — method: RNA Bind-n-Seq; form: RNA; matrix: in vitro; tested at: 365 nM; relative to: no-protein control; reading: higher = stronger binding; quantity: RBNS enrichment (R)
Target: RNA binding protein fox-1 homolog 2, RRM domain, GST-SBP tag (RBFOX2, Homo sapiens, UniProt O43251-10, residues 100-194)
Setting: natural RNA segment, single round, ends assumed
Residues (chain): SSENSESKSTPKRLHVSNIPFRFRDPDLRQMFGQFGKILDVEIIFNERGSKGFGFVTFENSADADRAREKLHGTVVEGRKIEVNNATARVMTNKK
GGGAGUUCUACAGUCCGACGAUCUAUACACUGAGAAGGAAGAAAGGAGCCAGUGAUUCCAGGAGGAGGAGGGCCCGGCCAGGGACUCCCCAGUAUUUCCAGGCCAUAAUGGUGGACCCACAGCCCUGACUUCAUGGAAUUCUCGGGUGCCAA: 0.411
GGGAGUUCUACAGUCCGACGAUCUGAAGAUCUUGGAUGAGCCCGUGGUCUUUUGUGUCAUCUACGAAGCUGUGGGACUAAGCAGCUGUAGGACCUCAGAAUGGGCAAGGACAGUCUGUGAGAGGGAGUCUCUCUGGAAUUCUCGGGUGCCAA: 0.466
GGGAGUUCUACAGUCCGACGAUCAUGUCAUUUGCCUUGCUCACUUGUAACCCCUUCCUCAGGUCCAAGAGAAUGGGAGGAGGGUCAUGUUGAAGUGUAGCCACUGGAACUUUCUUGCAUUUAUGGAGUUGCUUUGGAAUUCUCGGGUGCCAA: 2.17
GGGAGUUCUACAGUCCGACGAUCUUUCUGCUUGUUUUGAUUCAAAGUGCAGUUACUGAUGUUGUUUUGAUUAUGCAACUAAGUAGGCCUCCAGAGCCUCUCUAGUGGCAGAGCAGCUCACACUCCCUCCGCUGUGGAAUUCUCGGGUGCCAA: 0.582
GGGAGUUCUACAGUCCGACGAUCUUUAAGAAAGUUGGAAAGGUCUCUCCUCCCAAGGACAGUGGCUGGAAGAGUUGGGGCACAGCCAGUUCUGAAUGUUGGUGGAGGGUGUAGUGGCUUUUUGGCUCAGCAUCUGGAAUUCUCGGGUGCCAA: 1.06
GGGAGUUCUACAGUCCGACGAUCAUGCACUUUAGAAUGUAAAAUAACAAUGACUAUUUUAAACUCGAAGACCCACUAUUUUGAGUAUUUUUUAUAGACUUUAAAUACUGGGUUUUUUUCCUCCUUCAAUCUCAUGGAAUUCUCGGGUGCCAA: 0.749
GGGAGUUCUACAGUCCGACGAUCCAGCAAUUCACGCUGUCUCUUCUUAACCCUGAACAAGAGUGUCUAUGGAGCAGCCGGAAGUCUGUUCUCAAAGCAGAAGUGGAAUCCAGUGUGGCUCCCACAGGUCUUCAUGGAAUUCUCGGGUGCCAA: 0.159
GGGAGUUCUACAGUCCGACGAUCUGUCUGUAUGUGUGUAUAGAUGGAUUGGUAUAACUCAUUCUAAACGUGUCUGCCAGGGCUCAAGUUUUAUUGUUCUUGCCCCACUCCCACCCCAUGUUACAGCAAGACUGUGGAAUUCUCGGGUGCCAA: 0.526
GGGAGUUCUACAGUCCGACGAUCAUAUAGAGUGACUUGGAGAGAGAUUCAGAAGUUAGGGGUAGCGGGGGUAGGAUGGUUGGGACCAGAUUGACUACCCUGUACCCUUCCUUCUUCCCCAAUAUGCCUGCGCCUGGAAUUCUCGGGUGCCAA: 0.905
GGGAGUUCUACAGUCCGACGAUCUUGGGGCAGGAGGGAUCGCAGUUCUUCAAAUUCAGGUCUUCGAAGAUAAUUUCCAGGUGUCUUCUCAAACGGAGUAAGCGCCUGGAUCCAAAUGGUAGACUACUUGACCCUGGAAUUCUCGGGUGCCAA: 0.528
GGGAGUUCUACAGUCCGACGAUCGGAAAAGCUUGGGCGGUGCCCAGCGUGCCCGCUGCCCAUCGACGUCUGUCCUGGGGACGUGGAGGGUGGCAGCGUCCCCGCCUGCACCAGUGCCGUCCUGCUGAUGUGGUUGGAAUUCUCGGGUGCCAA: 0.535
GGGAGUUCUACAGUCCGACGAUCAUGCAUAUUGUUUAUAAAGACACAUUUACAAUUUACUUUUAAUAUUAAAAAUUACCAUAUUAUGAAAUUGCUGAUAGUAUUUGAAGACUGAGUCUUGUGUGUUUCCCACCUGGAAUUCUCGGGUGCCAA: 0.81

Series 2 — method: aptamer microarray, sandwich; form: DNA with 2'F-ANA; matrix: in vitro; tested at: 200 nM; added: Cy3 exosite-II aptamer, 400 nM; reading: higher = stronger binding; quantity: mean fluorescence intensity; oligonucleotide: GGTTGGTGTGGTTGG
Target: Prothrombin, mature alpha-thrombin (F2, Homo sapiens, UniProt P00734)
Setting: whole 15-mer aptamer, many near background
2'F-ANA at 3 4 7 8 10 12 14: 207 a.u.
2'F-ANA at 1 3 4 6 9 10 11 12 15: 101 a.u.
2'F-ANA at 2 3 4 5 9 11 13 14 15: 50.7 a.u.
2'F-ANA at 2 4 7 10 11 12: 120 a.u.
2'F-ANA at 1 4 5 6 7 9 13: 59.9 a.u.
2'F-ANA at 4 5 7 8 9 14 15: 46.7 a.u.
2'F-ANA at 5 10 11 12 14 15: 48.4 a.u.
2'F-ANA at 1 3 4 5 7 10 11 12: 46.6 a.u.
2'F-ANA at 2 3 5 6 7 9 10 11 13 14 15: 49.1 a.u.
2'F-ANA at 3 4 5 6 9 12 13 14: 53.5 a.u.
2'F-ANA at 6 7 8 10 15: 164 a.u.
2'F-ANA at 1 4 7 8 9 10 11: 59.7 a.u.
2'F-ANA at 2 3 4 5 8 9 10 11 12: 55.6 a.u.
2'F-ANA at 3 4 7 8 10 12 13 14: 240 a.u.
2'F-ANA at 1 2 3 7 8 9 10 11 12 14: 55.1 a.u.
2'F-ANA at 1 2 3 4 5 6 9 12 13 14 15: 69.7 a.u.
2'F-ANA at 2 3 5 7 10 11 12 13 14 15: 54.6 a.u.
2'F-ANA at 2 3 9 10 12 13: 440 a.u.
2'F-ANA at 5 6 7 8 9 10 14: 45.8 a.u.
2'F-ANA at 1 6 10 11 13: 65.5 a.u.
2'F-ANA at 1 2 3 4 7 8 9 11 14 15: 60.8 a.u.

Series 3 — method: RNA Bind-n-Seq; form: RNA; matrix: in vitro; tested at: 1 µM; setting: whole 134-nt RNA, ends assumed; added: 150 mM KCl; relative to: input library; reading: higher = stronger binding; quantity: log2 enrichment
Target: Ras GTPase-activating protein-binding protein 1, RRM domain (G3BP1, Homo sapiens, UniProt Q13283)
Sequence of UniProt Q13283 (whole entry, looked up): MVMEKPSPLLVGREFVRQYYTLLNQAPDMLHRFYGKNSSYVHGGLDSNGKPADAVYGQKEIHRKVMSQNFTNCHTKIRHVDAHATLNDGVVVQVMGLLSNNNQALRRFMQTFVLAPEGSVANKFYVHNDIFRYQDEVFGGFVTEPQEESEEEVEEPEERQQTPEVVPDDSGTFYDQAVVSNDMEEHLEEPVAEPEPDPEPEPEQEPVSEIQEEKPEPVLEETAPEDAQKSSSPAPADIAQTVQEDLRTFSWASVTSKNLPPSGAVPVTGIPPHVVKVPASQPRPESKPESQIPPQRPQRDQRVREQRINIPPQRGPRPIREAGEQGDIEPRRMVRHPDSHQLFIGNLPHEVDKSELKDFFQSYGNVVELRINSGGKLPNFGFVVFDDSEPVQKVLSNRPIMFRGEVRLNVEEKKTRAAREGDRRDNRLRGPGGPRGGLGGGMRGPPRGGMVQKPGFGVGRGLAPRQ
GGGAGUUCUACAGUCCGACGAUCUCAAGUCCUGUGCUACACAUCGUAUGUACCGAAUCGGUUUGGUUUGGGUUUGGGAAAGUAUUAUGUUACGCCGUUCGGAUCUGCACUUCCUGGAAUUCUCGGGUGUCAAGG: -0.257
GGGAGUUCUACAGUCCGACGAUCACCAUGCAGGUGGGCAUCUUUGGGAAGUGGGGCAAGGGGGGGAUAGGGAGGGGGGUAACACAUUGGGAACAGGUGGUCCCAGGUCGUUUCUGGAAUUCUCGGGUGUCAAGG: 0.927
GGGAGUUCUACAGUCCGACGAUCUCCUGUGCUACACAUCGUAUGUACCGAAUCGGUUUUUUGGGUUUUUUGGGUUUUUUGGGAAAGUAUUAUGUUACGCCGUUCGGAUCUGCAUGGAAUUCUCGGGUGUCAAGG: -0.145
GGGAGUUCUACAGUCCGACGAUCUAACUUUAGAGGAGGAUCUGAUGGAUAUGGCAGUGGACGUGGAUUUGGGGAUGGCUAUAAUGGGUAUGGAGGAGGACCUGGAGGUGGCCAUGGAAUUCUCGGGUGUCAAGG: -0.164
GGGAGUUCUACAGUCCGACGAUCUGAUCUCCAGGAUGACAUGCGAAGAUGCCAAAUCAUCCGAGACAUGAUUGGACCGGAAAAGACUUUGGUAAAUAUCCUCUCACACCACUAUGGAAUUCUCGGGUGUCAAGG: -0.0374
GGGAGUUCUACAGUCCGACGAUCUGGGAGGUGGAUUUUGUUUAUUUUUUUAGCUCAUUUCCAGGGGUGGGAAUUUUUUUUUAAUAUGUGUCAUGAAUAAAGUUGUUUUGGAAAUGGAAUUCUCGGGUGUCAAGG: 1.08
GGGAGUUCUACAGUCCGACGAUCCCUCAAGUCCUGUGCUACACAUCGUAUGUACCGAAUCGGUGGUGGUUUUUGGAAAGUAUUAUGUUACGCCGUUCGGAUCUGCACUUCCAGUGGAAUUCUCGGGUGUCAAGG: -0.126
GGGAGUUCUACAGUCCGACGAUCUGGGAGGUGGAUUUUGUUUAUUUUUUUAGCUCAUUUCCAGGGGUGGGAAUUUUUUUUUAGUAUGUGUCAUGAAUAAAGUUGUUUUUGAAAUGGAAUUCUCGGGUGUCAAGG: 1.44
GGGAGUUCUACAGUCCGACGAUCUCAAGUCCUGUGCUACACAUCGUAUGUACCGAAUCGGGGUGGGGUGGGGUGGGGAAAGUAUUAUGUUACGCCGUUCGGAUCUGCACUUCCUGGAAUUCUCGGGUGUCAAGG: 0.0648
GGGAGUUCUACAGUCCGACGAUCCCUGUGCUACACAUCGUAUGUACCGAAUCGGGGUUUGGGGAAAAAGGGGUUUUUUUGGGGAAAGUAUUAUGUUACGCCGUUCGGAUCUGCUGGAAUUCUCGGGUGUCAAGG: 1.03
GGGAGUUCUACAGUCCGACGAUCUGGCCCUGGUGACAUGCGGGGAGGAAGAGGUGGCCUCAUGGAUCGUGGUGGUCCCGGUGGAAUGUUCAGAGGUGGCCGUGGUGGAGACAGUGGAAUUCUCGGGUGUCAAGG: 0.864
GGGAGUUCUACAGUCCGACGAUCGUCCUGUGCUACACAUCGUAUGUACCGAAUCGGUUUUUUUGGUUUUUUUGGUUUUUGGAAAGUAUUAUGUUACGCCGUUCGGAUCUGCACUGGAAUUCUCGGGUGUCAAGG: -0.201
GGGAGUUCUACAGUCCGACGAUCCCUCAAGUCCUGUGCUACACAUCGUAUGUACCGAAUCGGGAGGAGGGGAGGGGAAAGUAUUAUGUUACGCCGUUCGGAUCUGCACUUCCAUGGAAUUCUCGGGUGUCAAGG: 0.362
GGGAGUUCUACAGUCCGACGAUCCCUGUGCUACACAUCGUAUGUACCGAAUCGGGUUUUUUUGGGGUUUUUUUGGUUUUUUUGGAAAGUAUUAUGUUACGCCGUUCGGAUCUGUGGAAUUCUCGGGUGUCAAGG: -0.147

Series 4 — method: protein binding microarray; form: double-stranded DNA, one strand shown; matrix: in vitro; tested at: not given; relative to: not given; reading: higher = stronger binding; quantity: E-score
Target: Histone acetyltransferase KAT6A, both winged helices, GST fusion (KAT6A, Homo sapiens, UniProt Q92794, residues 1-181)
Setting: 8-mer, flanks averaged, mean of 2 arrays, mostly near background
Residues (chain): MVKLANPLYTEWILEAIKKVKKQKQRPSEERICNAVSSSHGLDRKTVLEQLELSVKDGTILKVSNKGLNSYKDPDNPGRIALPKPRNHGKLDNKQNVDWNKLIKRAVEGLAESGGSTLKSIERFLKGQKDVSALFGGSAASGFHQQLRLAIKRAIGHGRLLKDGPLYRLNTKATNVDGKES
ACTGCTTG: -0.159
CCTTTGAG: -0.0891
GATTGGTA: -0.0975
GGCTAGAA: 0.0244
GACGAGAC: -0.061
CTTCCCTA: -0.205
CATCTCGA: -0.123
CCTGCGTA: 0.0688
CGTCCCGC: 0.309
CAGGAATC: -0.16
CCAGTTCG: 0.006
CCCGATAG: 0.0588
ACACGACA: -0.136
ATGTTTAA: -0.0971
CAATGGCC: -0.134
ACAGCGTA: 0.123
CAGTGTCG: -0.0204
GCCTATTA: 0.0264

Excerpt of the above (series 3):
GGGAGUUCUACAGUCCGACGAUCUCCUGUGCUACACAUCGUAUGUACCGAAUCGGUUUUUUGGGUUUUUUGGGUUUUUUGGGAAAGUAUUAUGUUACGCCGUUCGGAUCUGCAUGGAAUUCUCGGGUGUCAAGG: -0.145
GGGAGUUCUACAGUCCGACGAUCUAACUUUAGAGGAGGAUCUGAUGGAUAUGGCAGUGGACGUGGAUUUGGGGAUGGCUAUAAUGGGUAUGGAGGAGGACCUGGAGGUGGCCAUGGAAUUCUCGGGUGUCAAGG: -0.164
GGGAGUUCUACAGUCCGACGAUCUGAUCUCCAGGAUGACAUGCGAAGAUGCCAAAUCAUCCGAGACAUGAUUGGACCGGAAAAGACUUUGGUAAAUAUCCUCUCACACCACUAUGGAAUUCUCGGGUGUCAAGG: -0.0374
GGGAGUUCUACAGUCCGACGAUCUGGGAGGUGGAUUUUGUUUAUUUUUUUAGCUCAUUUCCAGGGGUGGGAAUUUUUUUUUAAUAUGUGUCAUGAAUAAAGUUGUUUUGGAAAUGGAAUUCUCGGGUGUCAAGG: 1.08
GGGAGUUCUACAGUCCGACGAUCCCUCAAGUCCUGUGCUACACAUCGUAUGUACCGAAUCGGUGGUGGUUUUUGGAAAGUAUUAUGUUACGCCGUUCGGAUCUGCACUUCCAGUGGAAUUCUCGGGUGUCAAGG: -0.126
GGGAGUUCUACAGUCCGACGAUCUGGGAGGUGGAUUUUGUUUAUUUUUUUAGCUCAUUUCCAGGGGUGGGAAUUUUUUUUUAGUAUGUGUCAUGAAUAAAGUUGUUUUUGAAAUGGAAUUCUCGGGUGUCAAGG: 1.44
